# Assay results of several laboratories.
# Compare with care: the assays were run in different laboratories. ± gives the spread as reported.
SMILES,tested on,assay,test system,setting,scale,endpoint,result
[64Cu+2].c1cnc(CNCc2ccc(CN3CCCN4CCNCCCN(CC4)CC3)cc2)nc1,CXCR4,,"NOD/SCID mouse, U87 and U87-stb-CXCR4 xenografts","iv, 90 min, no blocking dose",reference: U87 tumour over blood,tumour-to-tissue ratio,4.13 ± 1.8
CC(C)=CCCC(C)=CCc1cc(-c2coc3cc(OC4OC(C(=O)O)C(O)C(O)C4O)ccc3c2=O)ccc1O (stereo not drawn),,"glucuronidation, substrate",rabbit liver microsomes,,,substrate inhibition Ki,11.1 ± 1.67 µM
N#CCc1cccc(Cl)c1-c1ccc2[nH][11c](=O)[nH]c2c1,P-glycoprotein and Bcrp,ex vivo brain uptake,mouse,"injection, 5 min, added: tariquidar and Ko143",reference: without inhibitors,brain-to-blood ratio increase,202%
O=C(NCCCN(CCCCN(CCCNC(=O)c1cccc(=O)n1[O-])C(=O)c1cccc(=O)n1[O-])C(=O)c1cccc(=O)n1[O-])c1cccc(=O)n1[O-].[89Zr+4],,radio-TLC,PBS,"1 d, pH 7.4, 37 °C, added: Cu^2+ 10-fold excess",,intact complex,98.1 ± 2.7%
COc1ccc2c(c1)c(CC(=O)[O-])c(C)n2C(=O)c1ccc(Cl)cc1.COc1ccc2c(c1)c(CC(=O)[O-])c(C)n2C(=O)c1ccc(Cl)cc1.[Co+2].c1c[nH]cn1.c1c[nH]cn1,,cyclic voltammetry,DMSO/buffer,"Co(II)/Co(I) couple, no DNA",,anodic peak potential,-510 mV
O=C(O)C1OC(OC2CCC(C(O)CC3c4c(F)cccc4-c4cncn43)CC2)C(O)C(O)C1O (stereo not drawn),,,"human, urine","oral, 200 mg, [14C]-navoximod dosed",reference: dose,urinary excretion,8.74%
COc1cc(O)c(-c2c(O)cc(OC)c3c2ccc2cc(O)ccc23)c2ccc3ccccc3c12,BV-2,"cell growth or viability, MTT",,"40 µM, 24 h",,viability,44.5%
CCCC[C@@H]1NC(=O)[C@@H](NC(=O)[C@H](CCC(=O)O)NC(=O)CNC(=O)CN2CCN(CC(=O)O)CCN(CC(=O)O)CCN(CC(=O)O)CC2)CCCCNC(=O)C[C@@H](C(N)=O)NC(=O)[C@H](C(C)C)NC(=O)[C@@H]2CCCN2C(=O)[C@H](CCCNC(=N)N)NC(=O)CNC(=O)[C@H](Cc2c[nH]c3ccccc23)NC(=O)[C@H](CCCNC(=N)N)NC(=O)[C@@H](Cc2ccccc2)NC(=O)[C@H](Cc2c[nH]cn2)NC(=O)[C@H](CCC(=O)O)NC1=O [gallium-67 labelled],,,"C57 mice, B16/F1 flank melanoma","intravenous, 2 h, added: blocking peptide 10 µg",reference: tumour over lung,tissue ratio,9.25
O=c1nc(NO)ccn1[C@@H]1O[C@H](CO)[C@@H](O)[C@H]1O,,"Western blot, refers to: CYP2D6","rat, normal, liver","oral, 80 mg/kg twice daily, 5 days",reference: control group,protein level,1.1 fold
COc1cc(NC(C)=O)c2c(c1O)-c1c(OC)c(OC)cc3c1C(C2)N(C)CC3 (stereo not drawn),,,rat heart homogenate,"5 µg/mL, time not given, three freeze-thaw cycles",,remaining compound,110 ± 1.9%
Cc1cc2c(cc1C1(c3ncc(C(=O)O)cn3)CC1)C(C)(C)CCC2(C)C,,,"Sprague-Dawley rat, male, plasma","oral, 100 mg/kg, 12 h, sesame oil vehicle",,HDL level,33 ± 4.9 mg/dL
CCC/C(=C\C1=C(C(F)(F)F)C(=O)c2ccccc2C1=O)C(=O)N(CC)CC,,,human plasma,"1 µM, 37 °C",,t1/2,42 min
CC[N+]1(Cc2ccc3ccc(O)c(C#N)c3n2)CCCC1CNC(=O)c1cc(S(N)(=O)=O)ccc1OC (stereo not drawn),,photolysis at 405 nm,KMOPS buffer,pH 7.2,,release yield,63%
O=[11C](N1CCC(CNS(=O)(=O)c2ccc(Cl)cc2)CC1)n1cncn1,,PET,"Sprague-Dawley rat, striatum","intravenous, dose not given, baseline",,radioactivity uptake,0.34 SUV
O=C(O)CCC(NP(=O)(O)OCCC[C@@H](NC(=O)CC[C@H](NC(=O)CCCCCNC(=O)c1ccc([18F])cc1)C(=O)O)C(=O)O)C(=O)O (stereo partly drawn),CWR22Rv1 tumour model,,"host not given, heart","4 h, tumour-bearing",,tracer uptake,0.067 %ID/g
N=C(N)NCCC[C@@H]1NC(=O)[C@H](Cc2c[nH]c3ccccc23)NC(=O)[C@@H](CC2CCCCC2)NC(=O)[C@@H]2CCCN2C(=O)[C@@H](NC(=O)CCc2ccccc2)CCCNC1=O,,,"C57BL/6J mice, spinal cord","intraperitoneal, 1 mg/kg",,elimination half-life,39.5 min
Cn1c(=O)oc2ccc(-c3ccc(CC(C#N)NC(=O)C4CNCCCO4)c(F)c3)cc21 (stereo not drawn),,refers to: mouth ulceration,human volunteers,"oral, dose not given",,treatment-emergent adverse event incidence,7.4%
[64Cu+2].c1ccc(CNCc2ccc(CN3CCCN4CCNCCCN(CC4)CC3)cc2)nc1,CXCR4,,"NOD/SCID mouse, U87 xenografts, U87-stb-CXCR4 tumour","90 min, added: AMD3465 25 mg/kg sc",,tissue uptake,2.5 ± 0.41 %ID/g
Cc1ccc(/N=N/c2c(O)ccc3ccccc23)c(C)c1,,,rat whole blood QC samples,"5.0 µg/L, 8 h, room temperature, short-term stability",,measured concentration,5.25 µg/L
Nc1nccc(-c2cn(C3CC3)c3ccccc23)n1,,radiolabelled metabolite profiling,"human male, plasma","oral, 110 mg, 10 h",,plasma concentration,37.2 ng/g
CCCCC/C=C/C(=O)CCc1ccc(O)c(OC)c1,mouse mAb 1-F12,"antibody binding, indirect competitive ELISA",,added: coating antigen 4-OVA,,IC50,0.134 µg/mL
O=C(c1ccccc1)N1C(c2ccc(OCC3CCN(CCCF)C3)cc2)c2ccc(O)cc2CC12CC2 (stereo not drawn),,plasma protein binding,mouse plasma,,,fu,0.0257
Clc1cccc(-c2nnc(/N=C/C=C/c3ccccc3)nc2/N=C/C=C/c2ccccc2)c1Cl,,rotarod test,"white albino mice, both sexes","intraperitoneal, 10 mg/kg",,time on rotating rod,104 ± 76.4 s
COc1cc(CCC(C)=O)ccc1O,mouse mAb 1-F12,"antibody binding, indirect competitive ELISA",,added: coating antigen 2-OVA,,IC50,> 4 µg/mL

# Some of these lines once more:
SMILES,tested on,assay,test system,setting,scale,endpoint,result
Cc1cc2c(cc1C1(c3ncc(C(=O)O)cn3)CC1)C(C)(C)CCC2(C)C,,,"Sprague-Dawley rat, male, plasma","oral, 100 mg/kg, 12 h, sesame oil vehicle",,HDL level,33 ± 4.9 mg/dL
O=c1nc(NO)ccn1[C@@H]1O[C@H](CO)[C@@H](O)[C@H]1O,,"Western blot, refers to: CYP2D6","rat, normal, liver","oral, 80 mg/kg twice daily, 5 days",reference: control group,protein level,1.1 fold
COc1cc(NC(C)=O)c2c(c1O)-c1c(OC)c(OC)cc3c1C(C2)N(C)CC3 (stereo not drawn),,,rat heart homogenate,"5 µg/mL, time not given, three freeze-thaw cycles",,remaining compound,110 ± 1.9%
Cn1c(=O)oc2ccc(-c3ccc(CC(C#N)NC(=O)C4CNCCCO4)c(F)c3)cc21 (stereo not drawn),,refers to: mouth ulceration,human volunteers,"oral, dose not given",,treatment-emergent adverse event incidence,7.4%
